Published values collected from several papers.
Compare with care: the assays were run in different laboratories. “And” joins repeats or separate records; there may be more than shown.

Structure (SMILES) | cell line | test | conditions | how to read | measurement | result
C=CC(=O)N1[C@@H](c2ccc3c(c2)OCO3)c2[nH]c3ccccc3c2C[C@H]1C(=O)NC | rat DRG neurons |  | 10 µM, 48 h, with: vincristine 40 nM |  | neuron degeneration | 23.1% and 19.2%
Nc1ccccc1NC(=O)c1ccc(CNc2nccc(-c3cccnc3)n2)cc1 | BT-12 | cell viability, MTT | 10 µM, 72 h |  | inhibition | 95%
CCc1cnc(N2CCC(c3nc(COc4ccc(-n5cnnn5)cc4)cs3)CC2)nc1 | HEK-293T | RNA-seq GSEA, measured: HALLMARK_P53_PATHWAY | concentration not given | direction not given | normalized enrichment score | 1.26
CC(C(=O)Nc1cccc(/N=C/c2c(O)ccc3ccccc23)c1)c1ccccc1 (centres unmarked) | HBL-1 |  | 0.5 µM, 120 h |  | viability | 106%
Cn1cc(-c2ccc(-c3cncc(Cl)c3N3CCC4(CCNC4=O)CC3)cc2)cn1 | COLO 205 | gene expression, microarray, measured: SPIB mRNA | concentration not given, 6 h | relative to: untreated cells | log2 fold change | -3.55
Cc1ccccc1Cn1cc(-c2cccc(NC(=O)Nc3ccc(F)cc3)c2)nn1 | Huh-7 | RT-PCR, measured: oxidative stress and autophagy genes | 10 µM, 72 h |  | mRNA level | no effect
CCC/C(=C\C1=C(OC)C(=O)c2ccccc2C1=O)C(=O)N(CC)CC | human brain microvascular endothelial | cell growth, alamarBlue | 48 h | relative to: DMSO | GI50 | 2.88 µM
CC(NC(=O)c1ccccc1/N=C/c1c(O)ccc2ccccc12)c1ccccc1 (centres unmarked) | HBL-1 |  | 1 µM, 120 h |  | viability | 103%
O=C1Nc2ccc(Cl)cc2/C1=C/c1cc(Cl)c(O)c(Cl)c1 | HeLa expressing Ub(G76V)-GFP | Ub(G76V)-GFP degradation, cycloheximide chase | 12 µM |  | inhibition | 25%
Cc1[nH]c2ccccc2c1CCNCc1ccc(/C=C/C(=O)NO)cc1 | HBL-1 |  | 0.1 µM, 120 h |  | viability | 0.432%
CN(C)c1ccc(C(=O)NCCCCCCC(=O)NO)cc1 | BT-12 | cell viability, MTT | 10 µM, 72 h |  | inhibition | 91.4%
COc1cc2nc(N3CCCN(C)CC3)nc(NC3CCN(Cc4ccccc4)CC3)c2cc1OC | HBL-1 |  | 1 µM, 120 h |  | viability | 106%
C=CC1=C(C)c2cc3[n-]c(cc4nc(cc5[n-]c(cc1n2)c(C)c5C=C)C(C)=C4CCC(=O)O)c(CCC(=O)O)c3C.[Zn+2] | SH-SY5Y | RNA-seq, measured: PTGS1 mRNA | 5 µM, 5 h | relative to: untreated cells | fold change | 2.48
COc1cc2c(NC3CCN(C(C)C)CC3)nc(N3CCC(F)(F)CC3)nc2cc1OCCCN1CCCC1 | HBL-1 |  | 0.1 µM, 120 h |  | viability | 112%
Clc1nc(NCc2ccco2)c2[nH]cnc2n1 | iPSC-derived cardiomyocytes | RNA-seq, measured: ABCB4 chr7 exon ending 87412033 | unit not given | relative to: DMSO minus compound | ΔPSI | -0.454
CC(C)[C@H](CO)Nc1nc(Nc2cc(N)cc(Cl)c2)c2ncn(C(C)C)c2n1 | HeLa expressing Ub(G76V)-GFP | Ub(G76V)-GFP degradation, cycloheximide chase | 12 µM |  | inhibition | 31%
CCn1cc(-c2cc(Cn3ccnc3)cc3c2CCN([C@H](c2cc(OC)ccn2)C2CC2)C3=O)c(C(F)(F)F)n1 | SU-DHL-5 | cell growth, inhibitor | 120 h |  | EC50 | 0.0133 µM
C=C1CC(C(=O)Nc2cc(C(=O)NC)cc(-c3sccc3CCCCCCCC)c2OC)C1 | HEK293 expressing human TREM2/DAP12 | agonist, AlphaLISA | 5 to 100 µM, average over concentrations | relative to: untreated | phospho-Syk level | ~2 fold
Nc1n[nH]c2nc(-c3cccc(O)c3)cc(-c3cc4ccccc4nc3N3CCOCC3)c12 | NFS-60 | MTT |  | relative to: WI-38 EC50 over NFS-60 IC50 | selectivity ratio | 4.59
O=C(O)C(Cc1c[nH]c2ccccc12)N1C(=O)c2ccccc2C1=O (centres unmarked) | HBL-1 |  | 1 µM, 120 h |  | viability | 96.5%
CCCN1CCN(c2ccc3nc(-c4ccc5nc(-c6cc(OC)ccc6OC)[nH]c5c4)[nH]c3c2)CC1 | Hs-578T | SRB | 10 µM, 48 h |  | growth percent | 111%
CC(C)N(C[C@H]1O[C@@H](n2cnc3c(N)ncnc32)[C@H](O)[C@@H]1O)[C@H]1C[C@@H](CCc2nc3cc(C(C)(C)C)ccc3[nH]2)C1 | HBL-1 |  | 0.1 µM, 120 h |  | viability | 135%
O=C(Nc1ccc(Cl)cc1)c1ccccc1NCc1ccncc1 | HeLa expressing Ub(G76V)-GFP | Ub(G76V)-GFP degradation, cycloheximide chase | 12 µM |  | inhibition | 35%

Repeated from above:
Structure (SMILES) | cell line | test | conditions | how to read | measurement | result
Clc1nc(NCc2ccco2)c2[nH]cnc2n1 | iPSC-derived cardiomyocytes | RNA-seq, measured: ABCB4 chr7 exon ending 87412033 | unit not given | relative to: DMSO minus compound | ΔPSI | -0.454
CC(C)[C@H](CO)Nc1nc(Nc2cc(N)cc(Cl)c2)c2ncn(C(C)C)c2n1 | HeLa expressing Ub(G76V)-GFP | Ub(G76V)-GFP degradation, cycloheximide chase | 12 µM |  | inhibition | 31%
